# Literature values as cited in several papers.
# Each line is one published result; not all experiments were run side by side. ± gives the spread as reported.
SMILES,target,test,test system,conditions,measurement,value
O=C(O)c1ccnc(N2CC(O)(c3ccc(OCc4c(-c5c(Cl)cccc5Cl)noc4C4CC4)cc3Cl)C2)c1,CYP3A,"enzyme activity, inhibitor",,,IC50,6.3 µM
O=c1oc2cc(O)ccc2c2oc3cc(O)ccc3c12,PXR,"target gene upregulation, antagonist",,transient transfection,IC50,11 µM
Nc1nc2cccc(-c3ccc(CN4CCS(=O)(=O)CC4)cc3)n2n1,OATP1B3,inhibitor,,,IC50,> 473 µM
CCCc1nc2c(C)cc(-c3nc4ccccc4n3C)cc2n1Cc1ccc(-c2ccccc2C(=O)O)cc1,P-glycoprotein,"digoxin efflux, inhibitor",Caco-2,"pH 7.4, together with: digoxin",IC50,2.2 µM
CN1CCN(c2ccc(Nc3ncc4cc5n(c4n3)C3(CCCCC3)CNC5=O)nc2)CC1,MATE2-K,"transport, inhibitor",,,IC50,0.071 µM
CO[C@H]1C[C@@H]2CC[C@@H](C)[C@@](O)(O2)C(=O)C(=O)N2CCCC[C@H]2C(=O)O[C@H]([C@H](C)C[C@@H]2CC[C@@H](OCCO)[C@H](OC)C2)CC(=O)[C@H](C)/C=C(\C)[C@@H](O)[C@@H](OC)C(=O)[C@H](C)C[C@H](C)/C=C/C=C/C=C/1C,human OATP1B1,"rosuvastatin uptake, inhibitor",OATP1B1-expressing cells,"co-incubation, together with: rosuvastatin",IC50,1.58 ± 0.92 µM
C=CC(=O)N1CCC([C@@H]2CCNc3c(C(N)=O)c(-c4ccc(Oc5ccccc5)cc4)nn32)CC1,hERG channel,"ion current, inhibitor",,,IC50,9.11 µM
FC(F)(F)c1ccc(CNc2ccc(Cc3c[nH]c4ncc(Cl)cc34)cn2)cn1,CYP2C19,,,,IC50,9.3 µM
C[C@@H](c1nc(-c2ccc(C#N)cc2)cs1)[C@](O)(Cn1cncn1)c1cc(F)ccc1F,UGT1A1 human,inhibitor,human liver microsomes,together with: 17β-estradiol,IC50,9 µM
CN(C)CC=CC(=O)Nc1cc2c(Nc3ccc(F)c(Cl)c3)ncnc2cc1O[C@H]1CCOC1,OATP1B1,"transport, inhibitor",HEK293,together with: estradiol 17β-glucuronide,IC50,> 70 µM
C#Cc1ccc2ccccc2c1,cytochrome P450 2A6,"coumarin 7-hydroxylation, inhibitor",,,IC50,8.8 µM
Nc1ncnc2c1nc(Br)n2[C@@H]1O[C@@H]2COP(=O)(O)O[C@H]2[C@H]1O,PDE10,"cyclic nucleotide hydrolysis, substrate or inhibitor, isothermal titration calorimetry",,,Km or Ki,4.83 µM
C[C@@H](c1nc(-c2ccc(C#N)cc2)cs1)[C@](O)(Cn1cncn1)c1cc(F)ccc1F,CYP2B6,"enzyme activity, inhibitor",,together with: bupropion hydroxylation,IC50,15.1 µM
C[C@@H](c1nc(-c2ccc(C#N)cc2)cs1)[C@](O)(Cn1cncn1)c1cc(F)ccc1F,BCRP (ABCG2),"transport, inhibitor",,together with: [3H]prazosin,IC50,35.3 µM
O=C(/C=C/C=C/c1ccc2c(c1)OCO2)N1CCCCC1,"MDR1 (P-glycoprotein), human","efflux transport, inhibitor",Caco-2,together with: digoxin substrate,IC50,15.5 µM
Nc1nc2c(nc(Sc3ccc(Cl)cc3)n2C2OC3COP(O)(=S)OC3C2O)c(=O)[nH]1 (stereo not shown),PDE10,"cyclic nucleotide hydrolysis, substrate or inhibitor, isothermal titration calorimetry",,,Km or Ki,38.6 µM

# Repeated from above:
SMILES,target,test,test system,conditions,measurement,value
CCCc1nc2c(C)cc(-c3nc4ccccc4n3C)cc2n1Cc1ccc(-c2ccccc2C(=O)O)cc1,P-glycoprotein,"digoxin efflux, inhibitor",Caco-2,"pH 7.4, together with: digoxin",IC50,2.2 µM
